# Measurements collected from several papers.
# Each numbered part is a random draw from the data of one study; scales do not carry over between parts. Values joined by “and” are separate records of one study, mostly repeats; a detail may differ.
# Chain of UniProt O75385 (whole entry, looked up): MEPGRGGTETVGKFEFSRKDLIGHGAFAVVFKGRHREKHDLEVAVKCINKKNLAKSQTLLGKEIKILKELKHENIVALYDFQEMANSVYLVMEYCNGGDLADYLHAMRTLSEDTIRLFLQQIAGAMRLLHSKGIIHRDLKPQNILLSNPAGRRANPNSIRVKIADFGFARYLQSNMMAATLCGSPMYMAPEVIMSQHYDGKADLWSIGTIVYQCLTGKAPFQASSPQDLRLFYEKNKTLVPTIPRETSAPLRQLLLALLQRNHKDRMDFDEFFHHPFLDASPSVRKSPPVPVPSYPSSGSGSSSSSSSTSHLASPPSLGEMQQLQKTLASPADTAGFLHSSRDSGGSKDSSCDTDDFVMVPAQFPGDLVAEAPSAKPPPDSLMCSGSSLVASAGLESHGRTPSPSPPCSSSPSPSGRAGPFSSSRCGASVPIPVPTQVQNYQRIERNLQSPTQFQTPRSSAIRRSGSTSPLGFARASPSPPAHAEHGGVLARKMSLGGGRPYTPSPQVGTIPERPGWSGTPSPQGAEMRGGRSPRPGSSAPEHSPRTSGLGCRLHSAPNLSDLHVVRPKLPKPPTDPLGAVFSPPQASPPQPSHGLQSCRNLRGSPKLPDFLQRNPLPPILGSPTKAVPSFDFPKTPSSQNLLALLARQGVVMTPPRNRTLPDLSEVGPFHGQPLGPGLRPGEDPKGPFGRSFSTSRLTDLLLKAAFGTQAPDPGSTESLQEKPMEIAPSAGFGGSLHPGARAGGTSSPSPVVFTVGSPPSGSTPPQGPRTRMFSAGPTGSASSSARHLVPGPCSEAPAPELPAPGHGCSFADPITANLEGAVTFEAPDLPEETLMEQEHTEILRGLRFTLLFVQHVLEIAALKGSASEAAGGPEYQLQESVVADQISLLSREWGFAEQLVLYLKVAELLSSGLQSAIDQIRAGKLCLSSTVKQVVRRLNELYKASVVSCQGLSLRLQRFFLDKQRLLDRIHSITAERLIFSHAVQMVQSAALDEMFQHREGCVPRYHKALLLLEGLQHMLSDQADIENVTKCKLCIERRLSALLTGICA
# Chain of UniProt P29376 (whole entry, looked up): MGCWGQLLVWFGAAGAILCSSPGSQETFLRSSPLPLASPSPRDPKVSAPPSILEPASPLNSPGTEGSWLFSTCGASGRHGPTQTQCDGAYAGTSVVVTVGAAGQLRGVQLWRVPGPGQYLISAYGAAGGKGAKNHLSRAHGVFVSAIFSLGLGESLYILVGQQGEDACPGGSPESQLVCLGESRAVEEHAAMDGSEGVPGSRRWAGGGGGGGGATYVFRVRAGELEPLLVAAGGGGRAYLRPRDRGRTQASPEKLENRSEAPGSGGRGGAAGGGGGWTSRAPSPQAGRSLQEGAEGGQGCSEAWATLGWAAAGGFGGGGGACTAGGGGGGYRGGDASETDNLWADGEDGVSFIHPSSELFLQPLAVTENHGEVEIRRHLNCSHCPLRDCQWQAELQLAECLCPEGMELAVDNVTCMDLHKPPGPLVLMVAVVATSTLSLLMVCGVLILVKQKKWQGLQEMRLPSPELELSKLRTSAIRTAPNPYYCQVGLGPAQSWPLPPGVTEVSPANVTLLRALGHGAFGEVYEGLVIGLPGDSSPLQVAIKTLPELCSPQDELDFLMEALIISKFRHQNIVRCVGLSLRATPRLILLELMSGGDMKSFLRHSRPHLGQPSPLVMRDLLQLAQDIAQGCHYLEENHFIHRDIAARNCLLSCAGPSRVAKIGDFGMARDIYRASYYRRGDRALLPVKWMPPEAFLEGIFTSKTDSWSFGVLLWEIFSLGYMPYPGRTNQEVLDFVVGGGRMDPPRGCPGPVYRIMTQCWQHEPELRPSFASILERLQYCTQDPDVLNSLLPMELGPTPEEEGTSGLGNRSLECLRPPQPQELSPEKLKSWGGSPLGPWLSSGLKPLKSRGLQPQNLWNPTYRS

# Study 1 — mode: inhibitor; tested at: concentration not given; setting: absolute value; together with: with minus without ssDNA
# Target: DNA polymerase theta, helicase domain (POLQ, Homo sapiens, UniProt O75417)
# Chain of UniProt O75417 (whole entry, looked up): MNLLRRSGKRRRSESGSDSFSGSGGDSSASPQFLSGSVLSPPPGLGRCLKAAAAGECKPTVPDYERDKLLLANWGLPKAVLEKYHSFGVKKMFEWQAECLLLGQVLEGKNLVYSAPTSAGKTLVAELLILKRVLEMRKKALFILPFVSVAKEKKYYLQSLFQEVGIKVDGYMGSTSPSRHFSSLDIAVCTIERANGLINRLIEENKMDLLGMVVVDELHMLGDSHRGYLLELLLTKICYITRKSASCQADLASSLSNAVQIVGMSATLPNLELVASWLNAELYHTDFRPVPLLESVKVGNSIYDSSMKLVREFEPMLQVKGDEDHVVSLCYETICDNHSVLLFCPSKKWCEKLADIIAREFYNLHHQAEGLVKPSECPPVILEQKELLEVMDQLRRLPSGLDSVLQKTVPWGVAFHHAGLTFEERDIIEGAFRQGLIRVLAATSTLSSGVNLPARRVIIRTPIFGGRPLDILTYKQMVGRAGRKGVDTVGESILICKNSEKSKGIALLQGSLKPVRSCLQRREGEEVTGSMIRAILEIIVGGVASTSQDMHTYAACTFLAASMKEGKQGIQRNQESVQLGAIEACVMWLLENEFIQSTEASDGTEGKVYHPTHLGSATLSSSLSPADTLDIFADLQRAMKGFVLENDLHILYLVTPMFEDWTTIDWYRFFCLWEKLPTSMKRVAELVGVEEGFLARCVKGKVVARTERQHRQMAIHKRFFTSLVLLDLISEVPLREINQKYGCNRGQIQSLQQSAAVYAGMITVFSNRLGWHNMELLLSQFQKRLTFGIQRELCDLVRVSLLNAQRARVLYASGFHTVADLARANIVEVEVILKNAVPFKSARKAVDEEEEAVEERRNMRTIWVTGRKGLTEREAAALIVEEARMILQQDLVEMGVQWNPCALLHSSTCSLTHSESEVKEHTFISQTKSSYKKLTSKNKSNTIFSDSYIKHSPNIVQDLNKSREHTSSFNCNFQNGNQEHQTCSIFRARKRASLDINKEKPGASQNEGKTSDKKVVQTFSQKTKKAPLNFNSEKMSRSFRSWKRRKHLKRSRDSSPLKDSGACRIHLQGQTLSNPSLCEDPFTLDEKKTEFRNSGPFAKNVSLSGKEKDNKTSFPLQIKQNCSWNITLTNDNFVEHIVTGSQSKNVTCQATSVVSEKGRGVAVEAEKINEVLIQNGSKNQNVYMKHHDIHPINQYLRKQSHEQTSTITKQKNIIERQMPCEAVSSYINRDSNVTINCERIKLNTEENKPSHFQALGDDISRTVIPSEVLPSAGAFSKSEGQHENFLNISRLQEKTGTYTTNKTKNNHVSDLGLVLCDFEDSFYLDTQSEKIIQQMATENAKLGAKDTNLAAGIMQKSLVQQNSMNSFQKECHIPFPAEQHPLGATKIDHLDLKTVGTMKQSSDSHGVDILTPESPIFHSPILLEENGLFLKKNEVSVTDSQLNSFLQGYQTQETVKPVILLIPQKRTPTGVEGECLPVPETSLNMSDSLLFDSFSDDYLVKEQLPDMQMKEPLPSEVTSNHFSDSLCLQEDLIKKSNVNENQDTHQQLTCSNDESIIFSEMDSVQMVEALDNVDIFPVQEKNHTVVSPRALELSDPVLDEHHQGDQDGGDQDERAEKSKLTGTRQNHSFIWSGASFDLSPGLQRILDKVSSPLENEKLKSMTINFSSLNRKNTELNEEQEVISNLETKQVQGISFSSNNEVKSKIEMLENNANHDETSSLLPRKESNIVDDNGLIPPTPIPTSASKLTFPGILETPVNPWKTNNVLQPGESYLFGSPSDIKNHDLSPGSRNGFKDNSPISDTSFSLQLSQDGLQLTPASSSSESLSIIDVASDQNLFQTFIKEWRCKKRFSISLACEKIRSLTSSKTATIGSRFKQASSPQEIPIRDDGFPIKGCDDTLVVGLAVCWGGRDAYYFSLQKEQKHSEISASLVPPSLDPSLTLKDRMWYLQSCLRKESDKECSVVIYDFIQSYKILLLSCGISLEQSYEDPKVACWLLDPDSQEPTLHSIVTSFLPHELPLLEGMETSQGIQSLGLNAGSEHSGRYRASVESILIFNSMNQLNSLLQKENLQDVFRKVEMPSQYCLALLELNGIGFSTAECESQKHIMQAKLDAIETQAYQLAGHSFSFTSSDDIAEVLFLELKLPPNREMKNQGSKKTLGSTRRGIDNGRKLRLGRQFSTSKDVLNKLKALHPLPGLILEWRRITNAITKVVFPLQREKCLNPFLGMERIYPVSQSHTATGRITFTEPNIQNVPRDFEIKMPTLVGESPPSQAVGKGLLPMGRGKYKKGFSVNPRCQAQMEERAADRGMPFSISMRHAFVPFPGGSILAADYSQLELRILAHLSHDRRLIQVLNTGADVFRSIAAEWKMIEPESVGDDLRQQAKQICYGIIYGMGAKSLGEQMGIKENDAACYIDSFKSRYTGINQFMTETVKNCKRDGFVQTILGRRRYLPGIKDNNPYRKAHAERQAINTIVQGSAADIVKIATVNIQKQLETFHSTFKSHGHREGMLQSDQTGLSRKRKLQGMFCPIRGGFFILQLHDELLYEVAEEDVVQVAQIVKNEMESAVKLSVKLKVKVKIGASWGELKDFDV
Compound,difference in remaining activity
CC1=Nc2cc(C(=O)NCCc3ccc(Cl)cc3)ccc2Sc2ccc(C)cc21,2.38%
COc1cccc2c1C(=O)c1c(O)c3c(c(O)c1C2=O)C[C@@](O)(C(=O)CO)C[C@@H]3O[C@H]1C[C@H](N)[C@@H](O)[C@H](C)O1,51.3%
Cc1ccc(C(=O)Nc2ccc(S(=O)(=O)[O-])c3cc(S(=O)(=O)[O-])cc(S(=O)(=O)[O-])c23)cc1NC(=O)c1cccc(NC(=O)Nc2cccc(C(=O)Nc3cc(C(=O)Nc4ccc(S(=O)(=O)[O-])c5cc(S(=O)(=O)[O-])cc(S(=O)(=O)[O-])c45)ccc3C)c2)c1.[Na+].[Na+].[Na+].[Na+].[Na+].[Na+],11.9%
CCCCCCCCCCCCCCCC(=O)OC[C@H](O)[C@H]1OC(=O)C(O)=C1O,20.1%
O=C(O)C1=CC(=C(c2ccc(O)c(C(=O)O)c2)c2ccc(O)c(C(=O)O)c2)C=CC1=O,5.17%
CCc1ccc(/C=C2/SC(=S)NC2=O)cc1,1.61%
C/C(O)=C(\C#N)C(=O)Nc1ccc(C(F)(F)F)cc1,33.1%
COc1cccc(C2C3=C(NN/C3=C3/C=CC=CC3=O)C(=O)N2CCc2ccc(OC)c(OC)c2)c1 (stereo not shown),15.1%
O=C(Nc1cc2cc[nH]c2cn1)c1ccccc1,3.95%
CCCCCCCCCCC/C=C\C(C)(C)/C=C\CCCC(=O)O,3.63%
COc1ccc(C(=O)Nc2noc3ccccc23)cc1,0.697%
C[C@H]1[C@H](C)CC[C@]2(C(=O)O)CC[C@]3(C)C(=CC[C@@H]4[C@@]5(C)C[C@@H](O)[C@H](O)[C@@](C)(CO)[C@@H]5CC[C@]43C)[C@H]12,0.957%
Cc1nc(N=Nc2cc(S(=O)(=O)O)c3cc([N+](=O)[O-])cc(S(=O)(=O)O)c3c2)c(COP(=O)(O)O)c(C=O)c1O,107%

# Study 2 — cell line: mouse MPNST tumor cells; technique: high-content immunofluorescence imaging; measured: nuclear SOX9; tested at: 10 µM; time: 12 h; setting: mean of 2 replicates; relative to: DMSO control; direction: higher = more nuclear SOX9
Compound,nuclear SOX9 intensity
CCC(=O)N1CCOc2c(cc(-c3ccc(OC)c(OC)c3)cc2OC[C@H]2CCCN(C)C2)C1,129 % of DMSO and 164 % of DMSO
C=C1C(=O)O[C@@H](CCCCCCCC)[C@@H]1C(=O)O.C=C1C(=O)O[C@H](CCCCCCCC)[C@H]1C(=O)O,90.9 % of DMSO
C[C@](N)(Cc1ccc(O)c(O)c1)C(=O)O,98.3 % of DMSO and 97.5 % of DMSO
O=S(=O)(Cc1ccccc1)Nc1ccc(-c2ccc3c(cnn3-c3ccc(F)cc3)c2)c(C(F)(F)F)c1,87.7 % of DMSO
CCC(C)(CN(C)C)OC(=O)c1ccccc1 (stereo not shown),145 % of DMSO
Cc1cc(C(C)(C)C)cc(C)c1CC1=NCCN1,109 % of DMSO
CC[N+](C)(C)Cc1ccccc1Br,104 % of DMSO and 70.7 % of DMSO
O=C(Nc1cccc(C(F)(F)F)c1)Nc1ccc(Br)cc1-c1nn[nH]n1,112 % of DMSO
CC(=O)NCCc1c(Cc2ccccc2)[nH]c2ccccc12,95.8 % of DMSO
CSc1nc2ccc3nc(NC(=O)C(c4ccccc4)c4ccccc4)sc3c2s1,99.2 % of DMSO
CCN1CCN(c2cc3c(cc2F)c(=O)c(C(=O)O)cn3C2CC2)CC1,105 % of DMSO and 99.9 % of DMSO
Cc1nc2sccn2c(=O)c1CCN1CCC(=C(c2ccccc2)c2ccc(F)cc2)CC1,120 % of DMSO
C[C@H](NC[C@H](O)CP(=O)(O)Cc1ccccc1)c1ccc(Cl)c(Cl)c1,95.8 % of DMSO
CC(C)n1nc(C#Cc2ccccc2)c2c(N)ncnc21,126 % of DMSO

# Study 3 — read-out: enzyme activity; mode: inhibitor; tested at: 10 µM
# Target: Calcium/calmodulin-dependent protein kinase type II subunit alpha (CAMK2A, Homo sapiens, UniProt Q9UQM7)
# Chain of UniProt Q9UQM7 (whole entry, looked up): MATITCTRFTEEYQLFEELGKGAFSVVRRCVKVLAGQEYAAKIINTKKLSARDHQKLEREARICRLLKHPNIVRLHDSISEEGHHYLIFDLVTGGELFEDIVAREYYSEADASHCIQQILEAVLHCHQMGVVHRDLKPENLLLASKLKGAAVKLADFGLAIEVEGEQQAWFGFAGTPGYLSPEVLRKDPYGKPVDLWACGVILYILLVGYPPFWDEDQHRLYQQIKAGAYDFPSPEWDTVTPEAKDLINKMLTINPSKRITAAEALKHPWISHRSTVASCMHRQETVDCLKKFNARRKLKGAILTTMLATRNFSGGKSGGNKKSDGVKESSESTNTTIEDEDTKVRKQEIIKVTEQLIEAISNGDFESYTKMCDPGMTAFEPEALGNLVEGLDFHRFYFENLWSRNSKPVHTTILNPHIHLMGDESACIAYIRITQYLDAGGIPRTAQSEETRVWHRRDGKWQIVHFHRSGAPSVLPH
Compound,inhibition [%]
C[C@H](CCC(=O)O)[C@H]1CC[C@H]2[C@@H]3CC[C@@H]4C[C@H](O)CC[C@]4(C)[C@H]3CC[C@]12C,-4
OC(CCCN1CCCCC1)(c1ccccc1)c1ccccc1,-2
CO[C@@H]1[C@H](O)CC[C@]2(CO2)[C@H]1[C@@]1(C)O[C@@H]1CC=C(C)C,-30
O[C@H]1CCN2Cc3ccccc3N=C12,-15
CCC1(C)CC(=O)NC1=O (stereo not shown),1
CC(C)(C)NC[C@H](O)COc1nsnc1N1CCOCC1,5
Cc1ncc(CSSCc2cnc(C)c(O)c2CO)c(CO)c1O,6
CN1CCCC(CC2c3ccccc3Sc3ccccc32)C1 (stereo not shown),-1
CC[N+](C)(C)Cc1ccccc1Br,-5
C=CC[N+]1([C@H]2C[C@H]3[C@@H]4CC[C@H]5C[C@H](O)[C@@H](N6CCOCC6)C[C@]5(C)[C@H]4CC[C@]3(C)[C@H]2OC(C)=O)CCCC1,7
CC(=O)O[C@H]1C[C@H]2C(=O)O[C@H](c3ccoc3)C[C@@]2(C)[C@@H]2C[C@@H]3C[C@@H](C(=O)O3)[C@@H]12,-8
C[C@@H]1CC[C@@]2(OC1)O[C@H]1C[C@H]3[C@@H]4CC=C5C[C@@H](O[C@@H]6O[C@H](CO)[C@@H](O)[C@H](O[C@@H]7O[C@H](CO)[C@@H](O)[C@H](O)[C@H]7O)[C@H]6O[C@@H]6O[C@@H](C)[C@H](O)[C@@H](O)[C@H]6O)CC[C@]5(C)[C@H]4CC[C@]3(C)[C@H]1[C@@H]2C,-5
OB1OCc2cc(F)ccc21,-2

# Study 4 — read-out: cell-free assay; technique: competition with immobilised ligand; tested at: 1 µM
# SMILES: CCS(=O)(=O)c1cc2cc(C[C@@](O)(CC(C)(C)c3ccc(F)cc3C(N)=O)C(F)(F)F)[nH]c2cn1
target,remaining binding [%]
"Mitogen-activated protein kinase kinase kinase 14 (MAP3K14, Homo sapiens, UniProt Q99558)",59
"Dual specificity protein kinase CLK1 (CLK1, Homo sapiens, UniProt P49759)",100
"Cyclin-dependent kinase 4, with cyclin D1 (CDK4, Homo sapiens, UniProt P11802)",97
"Serine/threonine-protein kinase ULK1 (ULK1, Homo sapiens, UniProt O75385)",100
"Mitogen-activated protein kinase 6 (MAPK6, Homo sapiens, UniProt Q16659)",72
"Serine/threonine-protein kinase Nek7 (NEK7, Homo sapiens, UniProt Q8TDX7)",95
"Serine/threonine-protein kinase DCLK1 (DCLK1, Homo sapiens, UniProt O15075)",100
"Cyclin-G-associated kinase (GAK, Homo sapiens, UniProt O14976)",71
"Non-receptor tyrosine-protein kinase TNK1 (TNK1, Homo sapiens, UniProt Q13470)",100
"Receptor-type tyrosine-protein kinase FLT3, autoinhibited (FLT3, Homo sapiens, UniProt P36888)",100
"Tyrosine-protein kinase ABL1, phosphorylated (ABL1, Homo sapiens, UniProt P00519)",71
"Cytoplasmic tyrosine-protein kinase BMX (BMX, Homo sapiens, UniProt P51813)",50
"Serine/threonine-protein kinase 4 (STK4, Homo sapiens, UniProt Q13043)",100
"Calcium/calmodulin-dependent protein kinase type 1B (PNCK, Homo sapiens, UniProt Q6P2M8)",85
"Phosphatidylinositol 4,5-bisphosphate 3-kinase catalytic subunit alpha isoform (PIK3CA, Homo sapiens, UniProt P42336, C420R)",89
"Leukocyte tyrosine kinase receptor (LTK, Homo sapiens, UniProt P29376)",100
"Dual specificity tyrosine-phosphorylation-regulated kinase 1A (DYRK1A, Homo sapiens, UniProt Q13627)",66
"Leucine-rich repeat serine/threonine-protein kinase 2 (LRRK2, Homo sapiens, UniProt Q5S007)",42
